Assay results pooled from the literature.
± gives the spread as reported.
UniProt Q16539, sequence (whole entry, looked up): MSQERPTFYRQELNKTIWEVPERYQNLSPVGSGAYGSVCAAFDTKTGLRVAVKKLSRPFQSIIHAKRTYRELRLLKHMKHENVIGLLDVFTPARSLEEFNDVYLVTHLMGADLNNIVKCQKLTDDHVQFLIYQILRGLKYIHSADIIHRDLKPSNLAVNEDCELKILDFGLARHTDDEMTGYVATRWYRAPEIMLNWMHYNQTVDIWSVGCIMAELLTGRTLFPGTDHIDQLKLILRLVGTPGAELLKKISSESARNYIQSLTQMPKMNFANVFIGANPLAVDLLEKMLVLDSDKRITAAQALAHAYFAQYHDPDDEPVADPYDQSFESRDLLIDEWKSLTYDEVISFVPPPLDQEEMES
UniProt Q15349, sequence (whole entry, looked up): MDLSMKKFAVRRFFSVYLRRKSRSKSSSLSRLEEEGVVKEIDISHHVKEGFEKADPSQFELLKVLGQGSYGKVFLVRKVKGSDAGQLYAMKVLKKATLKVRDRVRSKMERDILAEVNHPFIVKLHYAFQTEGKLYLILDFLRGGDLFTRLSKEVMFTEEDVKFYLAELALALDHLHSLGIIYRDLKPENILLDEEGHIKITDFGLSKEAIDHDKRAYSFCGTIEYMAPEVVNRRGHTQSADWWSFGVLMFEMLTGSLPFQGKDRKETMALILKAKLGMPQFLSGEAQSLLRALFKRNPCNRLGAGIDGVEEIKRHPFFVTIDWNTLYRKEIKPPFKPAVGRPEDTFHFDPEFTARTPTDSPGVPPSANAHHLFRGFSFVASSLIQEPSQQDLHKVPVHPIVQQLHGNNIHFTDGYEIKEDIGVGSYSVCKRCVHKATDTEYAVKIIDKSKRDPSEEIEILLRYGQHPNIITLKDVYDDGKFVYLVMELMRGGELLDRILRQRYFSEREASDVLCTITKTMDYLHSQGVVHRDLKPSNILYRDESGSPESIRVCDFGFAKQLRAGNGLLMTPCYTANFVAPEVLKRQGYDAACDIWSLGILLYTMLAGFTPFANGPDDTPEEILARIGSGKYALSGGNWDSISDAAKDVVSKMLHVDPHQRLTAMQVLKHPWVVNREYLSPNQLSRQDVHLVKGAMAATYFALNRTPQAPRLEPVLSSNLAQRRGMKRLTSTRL
UniProt P51955, sequence (whole entry, looked up): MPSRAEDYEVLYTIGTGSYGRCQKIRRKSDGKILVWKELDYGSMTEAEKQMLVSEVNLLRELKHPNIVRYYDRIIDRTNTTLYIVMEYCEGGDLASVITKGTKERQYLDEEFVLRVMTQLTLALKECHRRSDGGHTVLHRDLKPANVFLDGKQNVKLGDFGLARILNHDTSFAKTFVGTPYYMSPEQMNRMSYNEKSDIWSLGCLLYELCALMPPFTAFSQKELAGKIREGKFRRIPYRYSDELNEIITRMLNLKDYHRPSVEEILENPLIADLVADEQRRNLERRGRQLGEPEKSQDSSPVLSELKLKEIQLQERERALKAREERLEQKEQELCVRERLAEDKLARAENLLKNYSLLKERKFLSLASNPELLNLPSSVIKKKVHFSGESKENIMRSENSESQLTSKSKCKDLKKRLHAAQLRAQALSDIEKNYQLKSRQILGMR
UniProt Q8TDC3, sequence (whole entry, looked up): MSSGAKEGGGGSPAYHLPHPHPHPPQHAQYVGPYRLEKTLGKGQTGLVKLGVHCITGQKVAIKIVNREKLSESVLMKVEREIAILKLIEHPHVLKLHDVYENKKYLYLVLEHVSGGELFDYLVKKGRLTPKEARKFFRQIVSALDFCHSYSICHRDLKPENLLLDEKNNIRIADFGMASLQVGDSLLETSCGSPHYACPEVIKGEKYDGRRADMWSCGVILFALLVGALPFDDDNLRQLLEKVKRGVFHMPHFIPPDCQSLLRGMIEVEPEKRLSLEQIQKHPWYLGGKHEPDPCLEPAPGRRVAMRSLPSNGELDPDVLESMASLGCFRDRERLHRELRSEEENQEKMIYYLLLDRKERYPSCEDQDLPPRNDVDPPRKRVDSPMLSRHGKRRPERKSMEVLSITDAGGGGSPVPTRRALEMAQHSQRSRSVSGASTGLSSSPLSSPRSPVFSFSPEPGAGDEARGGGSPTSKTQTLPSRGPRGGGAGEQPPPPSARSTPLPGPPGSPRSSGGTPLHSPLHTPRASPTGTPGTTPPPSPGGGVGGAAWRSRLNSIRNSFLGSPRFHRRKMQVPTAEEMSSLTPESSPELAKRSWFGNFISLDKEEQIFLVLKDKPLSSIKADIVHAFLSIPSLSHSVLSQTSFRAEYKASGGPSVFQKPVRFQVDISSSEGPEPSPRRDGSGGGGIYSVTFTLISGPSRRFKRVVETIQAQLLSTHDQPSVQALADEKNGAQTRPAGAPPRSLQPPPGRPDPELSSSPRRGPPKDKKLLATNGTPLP

| SMILES | target or system | assay | test system | setting | scale | endpoint | value |
| --- | --- | --- | --- | --- | --- | --- | --- |
| CC(C)C(=O)OC[C@H]1O[C@@](C#N)(n2ccc(N)nc2=O)[C@H](O)[C@@H]1O | Calu-3 | cell growth or viability |  |  |  | CC50 | > 100 µM |
| COc1ccc(-c2cnc3c(C#Cc4cccnc4)snc3c2)cc1OC | human cells |  |  | 24 (unit not given) |  | CC50 | > 10 µM |
| O=C1NC2(CC2)COc2ncc(F)cc2[C@H]2COCCN2c2ccn3ncc1c3n2 |  |  | Sprague-Dawley rat, male, serum | oral, 20 mg/kg/day, end of recovery, 4-week subacute toxicity |  | serum total bilirubin | 1.5 ± 0.4 µmol/L |
| CC(C)CC(NC(=O)OCc1ccccc1)C(=O)NC(CC1CCNC1=O)C(=O)C(=O)NC1CC1 (stereo not shown) | MDCK |  |  | 5 (unit not given) |  | CC50 | > 250 µM |
| CS(C)(=O)=Nc1ccc(-c2ccc(-c3nc4cc(O[C@@H]5CO[C@H]6[C@@H]5OC[C@H]6O)[nH]c4cc3F)cc2)cc1 | NEK2 (Homo sapiens, UniProt P51955) | enzyme activity, inhibitor |  | 10 µM |  | inhibition | -5% |
| O=c1c(O)ccc(-c2ccc(-c3ccccc3)cc2)cc1O | HepDES19 |  |  |  |  | CC50 | 20 ± 9.3 µM |
| CC(C)(C)C(=O)OCOP(=O)(OCOC(=O)C(C)(C)C)C1CCCN(O)C1=O (stereo not shown) | RXF 393 |  |  |  |  | log LC50 | > -4 log M |
| O=C1NC(=O)c2c1c1cc(F)c[n+]3c1c1c2c2cc(O)ccc2[n]1[Ru-4]312([N]=C=S)[S+]3CC[S+]1CC[S+]2CC3 (stereo not shown) | BRSK1 (Homo sapiens, UniProt Q8TDC3) | enzyme activity |  | 100 nM, human enzyme, with: 10 µM ATP | relative to: untreated | remaining activity | 51% |
| O=C(O)Cn1c(C2CC2)nc2ccccc21 | Vero (eGFP) |  |  | 15 h |  | CC50 | > 100 µM |
| COc1cc(O)c2c(c1)/C=C/C[C@H](O)[C@H](O)C(=O)/C=C\C[C@H](C)OC2=O | Calu-3 | cell growth or viability, resazurin |  |  |  | CC50 | > 60 µM |
| CCOC(=O)c1c(C)nc2cccc(N)n12 | Vero (eGFP) |  |  | 15 h |  | CC50 | > 100 µM |
| NC(=O)[C@@H](CCC(F)(F)F)N(Cc1ccc(-c2ncon2)cc1F)S(=O)(=O)c1ccc(Cl)cc1 | Huh-7.5.1 | cell growth or viability, ATP luminescence |  | 48 h |  | CC50 | 56.1 µM |
| Cc1nc2cccc(OCC(C)(C)C(=O)NC(C)C)c2c(N)c1C(=O)[O-].[Na+] | Salmonella typhimurium |  | TA98 | 0.051 mg per plate, without S9, preincubation |  | revertant colonies per plate | 22 ± 1 |
| Cc1cc(C(=O)Nc2nc3cccc(C)c3n2[C@H]2CCCCN(C(=O)/C=C/CN(C)C)C2)ccn1 | Trypanosoma brucei | propidium iodide flow cytometry | bloodstream form | concentration not given, 24 h |  | cells in G2 phase | 33.2% |
| COC(=O)c1c(C)cc(O)c(=O)c(O)c1Br | HepDES19 |  |  |  |  | CC50 | 78 ± 31 µM |
| CCC(C)C1OC2(CCC1C)CC1CC(C/C=C(\C)C(OC3CC(OC)C(OC4CC(OC)C(O)C(C)O4)C(C)O3)C(C)/C=C/C=C3\COC4C(O)C(C)=CC(C(=O)O1)C34O)O2 (stereo not shown) | Calu-3 | cell growth or viability, MTS |  | 48 h |  | CC50 | > 100 µM |
| COc1ccccc1-c1n[nH]c2nc(N[C@H]3CC[C@H](NS(=O)(=O)CC(C)C)CC3)ncc12 |  | bead binding, competition bead pull-down, item: LMJF.36.5010 | Leishmania donovani extract | 10 µM | relative to: vehicle | relative abundance | 1.13 |

| SMILES | target or system | assay | test system | setting | scale | endpoint | value |
| --- | --- | --- | --- | --- | --- | --- | --- |
| O=c1c(O)ccc(-c2cccc(-c3ccccc3)c2)cc1O | HepDES19 |  |  |  |  | CC50 | 56 ± 7.4 µM |
| O=C(NC(Cc1ccc2c(c1)OCO2)C(=O)N1CCCC1C(=O)O)c1ccccc1 (stereo not shown) | Vero (eGFP) |  |  | 15 h |  | CC50 | > 100 µM |
| C[C@H](NC(=O)[C@@H](O)c1cc(F)cc(F)c1)C(=O)N[C@@H]1C(=O)N(C)c2ccccc2-c2ccccc21 | Huh-7.5.1 | cell growth or viability, ATP luminescence |  | 48 h |  | CC50 | > 64 µM |
| COC(=O)c1c(CCl)cc(O)c(=O)c(O)c1C(=O)OC | HepDES19 |  |  |  |  | CC50 | > 80 µM |
| CN(C)[C@H]1C[C@@]23CC[C@@]4(O2)C(=CC[C@]2(C)[C@@H](c5ccc6ccncc6c5)CC[C@H]24)C=C3[C@@H](O)[C@@H]1O | MAPK14 (Homo sapiens, UniProt Q16539) | probe labelling, inhibitor, KiNativ ATP probe MS | native lysate | 1 µM |  | inhibition | 7% |
| CC[C@H](C)[C@H](NC(=O)[C@H](CO)NC(=O)[C@H](Cc1ccc(O)cc1)NC(=O)[C@H](Cc1ccc(O)cc1)NC(=O)[C@H](CC(N)=O)NC(=O)CNC(=O)[C@H](CO)NC(=O)[C@H](Cc1ccc(O)cc1)NC(=O)[C@H](CO)NC(=O)[C@H](CO)NC(=O)[C@H](CC(N)=O)NC(=O)COCCOCCNC(=O)CN1CCN(CC(=O)O)CCN(CC(=O)O)CCN(CC(=O)O)CC1)C(=O)N[C@@H](CC(C)C)C(N)=O [copper-64 labelled] |  | dynamic PET | mouse, tamoxifen-induced PDAC, tumor | intravenous, 0.1 µg/mouse, 3.5 min |  | tumour uptake | 14.5 %ID/mL |
| Cc1cc(O)c(=O)c(O)cc1-c1cccc2ccccc12 | HepDES19 |  |  |  |  | CC50 | 29 ± 4.3 µM |
| COc1cc(/C=C/c2ccc3c(c2)[C@@H](c2cc(O)cc(O)c2)[C@H](c2ccc(O)cc2)O3)cc(OC)c1 | Calu-3 |  |  | 24 (unit not given) |  | CC50 | 43 µM |
| COC(=O)c1cc(O)c(=O)c(O)cc1C | HepDES19 |  |  |  |  | CC50 | > 92 µM |
| N=C(N)NCCC[C@H](NC(=O)[C@H](CCCNC(=N)N)NC(=O)[C@H](CCCNC(=N)N)NC(=O)[C@H](CCC(N)=O)NC(=O)[C@H](CCCNC(=N)N)NC(=O)[C@H](CCCNC(=N)N)NC(=O)[C@H](CCCCN)NC(=O)[C@H](CCCCN)NC(=O)[C@H](CCCNC(=N)N)NC(=O)CNC(=O)[C@H](Cc1ccc(O)cc1)NC(=O)[C@H](Cc1ccccc1)NC(=O)[C@H](Cc1ccccc1)NC(=O)[C@H](Cc1ccccc1)NC(=O)OCC1c2ccccc2-c2ccccc21)C(=O)O | RAW264.7 | cell growth or viability |  |  |  | CC50 | > 64 µM |
| COc1ccc(-c2cnc3[nH]cc(C#Cc4cccnc4)c3c2)cc1OC | Calu-3 | cell growth or viability, resazurin |  |  |  | CC50 | > 60 µM |
| COC(=O)c1c2c(cc(O)c(=O)c1O)COC2=O | HepDES19 |  |  |  |  | CC50 | > 77 µM |
| COc1ccccc1-c1n[nH]c2nc(NC3CCN(C(=O)Cc4ccc(F)cc4F)CC3)ncc12 |  | bead binding, competition bead pull-down, item: LINJ.27.1710 | Leishmania donovani extract | 10 µM | relative to: vehicle | relative abundance | 0.98 |
| COc1ccc2c3c([nH]c2c1)[C@H](CC(C)C)N1C(=O)[C@H](CCC(=O)OC(C)(C)C)NC(=O)[C@@H]1C3 | A549 | MTT |  | 72 h, second print |  | CC50 | 22.9 µM |
| CC(C)[C@H]1NC(=O)C[C@H]2/C=C/CCSSC[C@@H](NC1=O)C(=O)N[C@H](Cc1cccc3ccccc13)C(=O)NCC(=O)O2 | RPS6KA2 (Homo sapiens, UniProt Q15349) |  |  | 10 µM |  | inhibition | -1.6% |
| Cc1cc(C(=O)NC2C=CS(=O)(=O)C2)c2c(C)nn(C)c2n1 (stereo not shown) | Vero (eGFP) |  |  | 15 h |  | CC50 | > 100 µM |
| COc1cc(/C=C/c2ccc3c(c2)[C@@H](c2cc(OC)cc(OC)c2)[C@H](c2ccc(O)cc2)O3)cc(OC)c1 | Calu-3 |  |  | 24 (unit not given) |  | CC50 | 236 µM |
